Measured values of several laboratories.
Lines come from different studies, so protocols differ. ± gives the spread as reported.

SMILES	test	system	setting	how to read	endpoint	result
N#CCNC(=O)c1ccc(-c2ccnc(Nc3ccc(N4CCOCC4)cc3)n2)cc1		healthy volunteers, plasma	oral, dose not given, with: rifampin single-dose	baseline: compound alone	AUCinf increase	57%
COc1cccc(OC)c1-c1cc(C(=O)NC2(C(=O)O)C3CC4CC(C3)CC2C4)nn1-c1ccc(C(=O)N(C)CCCN(C)CCCN(C)C(=O)CN2CCN(CC(=O)[O-])CCN(CC(=O)[O-])CCN(CC(=O)[O-])CC2)cc1C(C)C.[177Lu+3] (stereo not drawn)		mouse, HT-29 xenograft	168 h post injection, biodistribution	baseline: tumour over lung uptake	tumour-to-lung ratio	7.22
CN(C(=O)n1cnc(-c2ccc[n+]([O-])c2)c1)[C@H]1CC[C@H](O)CC1		Wistar rat, medulla oblongata	oral, 10 mg/kg/day of BIA 10-2474, 4 h, repeated 5 days		concentration	14.9 ± 1.5 ng/g
[18F]c1ccc(-c2ccc3c(c2)[nH]c2ccncc23)cn1	ex vivo biodistribution	B6SJL mouse, normal, liver	intravenous, 30 min		SUV	4.04 ± 1.8
C[C@H]1CN(C(=O)CC#N)[C@]12CCN(c1ncnc3[nH]ccc13)C2		healthy adults, plasma	oral, 6 mg single dose		half-life, median or range	2.8 h
CNCc1ccc(-c2[nH]c3cc(F)cc4c3c2CCNC4=O)cc1		human patients	oral, 600 mg twice daily, grade 4		nausea incidence	0%
Cl.[2H]C([2H])([2H])CC(=O)c1cnc(NC(=O)C2CC2)cc1Nc1cccc(-c2ncn(C([2H])([2H])[2H])n2)c1OC	geometric mean	human	oral, 20 mg twice daily, day 7, fed, liquid, multiple dose		half-life	7.68 h
Cn1cc(Nc2nccc(-c3ccc4c(c3)CN(C3COC3)CC[C@H]4NC(=O)c3cn(C(C)(C)C)nn3)n2)cn1		human, whole blood	150 mg twice daily, day 14	baseline: pre-dose baseline	CD4+ T cell count change	0.6%
Cc1ccc(O)c(-n2nc3ccccc3n2)c1		human aged 6-11 years	concentration not given, sunscreen, 95th percentile		daily dermal exposure dose	4720 ng/kg/day
CN1C[C@H](COc2nccc3c(NCc4ccco4)cc(Cl)nc23)OC1=O		rat Crl:CD(SD) male	oral, 100 mg/kg, single dose		general condition	negative
COc1ccc2c(c1)CN(C(=O)CCN1CCC(Cc3ccccc3)CC1)CC[S@@+]2[O-]	telemetry	conscious male beagle dogs	intravenous, 4 mg/kg, 1 h		QTc interval	257 ± 4 ms
O=C(OC(C(F)(F)F)C(F)(F)F)N1CCN(Cc2cccc(Oc3ccccc3)c2)CC1	PET blocking study	rhesus monkey, brain HIP	0.01 mg/kg, compound pretreatment, with: [18F]T-401 tracer		k2	0.081 min⁻¹
C/C(=N\c1ccc(O)cc1)c1cc2ccccc2n1C		rat plasma	50 ng/mL, time not given, 3 freeze-thaw cycles	baseline: nominal	remaining compound	112 ± 5.5%
N#Cc1ccc2c(c1)[C@H]1CCCN(C(=O)c3ccc4[nH]cnc4c3)[C@H]1C2		human, female	40 mg, day 7		androstenedione level	5.9 nmol/L
CN1CCN(c2cccc3c2CCN(C(=O)/C=C/c2c(-n4cnnn4)ccc(Cl)c2F)[C@@H]3C(=O)Nc2ccc(C(=O)O)cc2)C(=O)C1		healthy human subjects	intravenous infusion, 25 mg/h, 2 h		subjects with serious adverse event	0%
c1csc(CNc2cc[nH]n2)c1	alkaline comet	Hsd:ICR(CD-1) mice, male, liver	oral, 500 mg/kg/day, 3 days		tail DNA	1.93%
C[C@@H](O)[C@H](NC(=O)c1ccc(-c2ccc(Br)cc2)cc1)C(=O)NO		aqueous buffer	pH 7.4		thermodynamic solubility	< 10.7 µM
CC(C)NCCCC[C@@H]1NC(=O)[C@H](Cc2ccc(O)cc2)NC(=O)[C@H](Cc2ccccc2)NC(=O)CC[C@H](C(=O)N[C@@H](CCCCNC(C)C)C(=O)N[C@@H](CCCCNC(=O)[C@H](CCC(=O)O)NC(=O)[C@H](CCC(=O)O)NC(=O)[C@H](CCC(=O)O)NC(=O)CN2CCN(CC(=O)O)CCN(CC(=O)O)CCN(CC(=O)O)CC2)C(N)=O)NC(=O)CNC(=O)[C@H](Cc2ccc3ccccc3c2)NC(=O)[C@@H](CCCNC(=N)N)NC1=O [gallium-68 labelled]		mouse with JeKo-1 xenograft, kidney	intravenous, 1 h		tissue uptake	3.45 %ID/g
CCN1/C(=C/C(C)=O)Sc2ccc(F)cc21		cynomolgus monkey	oral, 100 mg/kg, 1 h post-dose		heart rate	121 ± 19 beats/min
CCc1ccc(-c2ccc(-c3cc(F)c(F)c(F)c3)c(F)c2)cc1		rat, placenta	10 ng/mL in perfusate, low dose, mixture of 21 LCMs		median placental accumulation	3.02 ng/g
Cc1ccc([C@@H]2O[C@H](CO)[C@@H](O)[C@H](O)[C@H]2O)cc1Cc1ccc(-c2ccc(F)cc2)s1	item: inorganic phosphorus	Japanese type 2 diabetes patients	100 mg, day 18, 24 h urine collection	baseline: baseline	urinary phosphate excretion change	-42.6 mg

SMILES	test	system	setting	how to read	endpoint	result
C=CCN1CC(=O)N2[C@@H](Cc3ccc(O)cc3F)C(=O)N(Cc3cccc(N4CC(N5CCN(CC)CC5)C4)n3)C[C@@H]2N1C(=O)NCc1ccccc1		advanced solid tumour patients	oral, 100 mg twice daily, grade ≥3, dose-escalation		treatment-related vomiting	0%
COc1ccc2[nH]c([S+]([O-])Cc3ncc(C)c(OC)c3C)nc2c1 (stereo not drawn)		healthy Chinese volunteers, plasma	oral, 20 mg, enteric-coated capsules, CYP2C19 rapid metabolizers		AUC(0-inf)	249 ± 80.9 ng·h/mL
Cc1nc2cccc(OCC(C)(C)C(=O)NC(C)C)c2c(N)c1C(=O)O		Swiss albino CD-1 mouse	oral, 2000 mg/kg, 24 h		mean body weight change	-0.2 ± 0.7 g
Cc1ccc(C(=O)N(CCCN)C(c2nc3snc(C)c3c(=O)n2Cc2ccccc2)C(C)C)cc1 (stereo not drawn)	item: Pneumonia	human patients	intravenous, 16 mg/day, CTCAE grade ≥3		patients with adverse events	0%
N#CC1CCN(c2nc(-c3ccccn3)nc3ccccc23)CC1		Japanese Pharmacopoeia disintegration test solution 2	pH 6.8		kinetic solubility	74 µg/mL
O=C(Nc1cnccc1Cl)N1CCN(Cc2ccc3c(c2)OC(F)(F)O3)CC1	item: Somnolence	human healthy young men	25 mg, multiple dose		adverse event incidence	0%
CCOc1c([C@H](C)n2nc(C)c3c(N)ncnc32)cc(Cl)c(F)c1[C@@H]1CNC(=O)C1		patients, monotherapy	oral, 10 mg once daily, cycle 1 day 15		Cmax geometric mean	0.749 µM
C[C@@H](N)C1CCN(S(=O)(=O)c2cccc3cnccc23)CC1		healthy volunteers	150 mg, fed		incidence of limb abscess TEAE	10%
Cc1cc(-c2nccc3c2ccn3CC(=O)Nc2ccc(-c3cnccn3)cn2)ccn1		human	SAD part, single 20 mg dose		subjects with any IMP-related TEAE	16.7%
COc1cc2[nH]c(C)c(-c3ccc(OC(F)(F)F)cc3)c(=O)c2cc1Cl			pH 7.4		kinetic solubility	< 2 µM
FC(F)(F)c1ccc(CNc2ccc(Cc3c[nH]c4ncc(Cl)cc34)cn2)cn1	item: Hypophosphatemia	patients with advanced solid tumours, non-TGCT cohort	oral, 1000 mg/day, grade 3 or higher		treatment-related adverse events	4%
O=C(Nc1nc2cccc(-c3ccc(CN4CCS(=O)(=O)CC4)cc3)n2n1)C1CC1	item: gingival bleeding	human rheumatoid arthritis patients	oral, 30 mg once daily, 4 weeks, regardless of relatedness		treatment-emergent adverse events	0%
CC=CC1CCC(C2CCC(CCC)CC2)CC1 (stereo not drawn)		rat, placenta	5000 ng/mL in perfusate, high dose, mixture of 21 LCMs		median placental accumulation	184 ng/g
O=C(Nc1ccc(OC(F)(F)Cl)cc1)c1cnc(N2CC[C@@H](O)C2)c(-c2ccn[nH]2)c1	per treatment cycle, item: AST increase	human patients	oral, dose not given, 28 day cycle, dose-finding study		grade ≥2 event rate	0.4%
OC[C@H]1O[C@@H](Oc2cc3c(O)cc(O)cc3[o+]c2-c2cc(O)c(O)c(O)c2)[C@H](O)[C@@H](O)[C@@H]1O	CIELAB from visible spectra	aqueous buffer	50 µM, pH 7, ±BSA 600 µM or lysozyme 1000 µM		hue angle	350.6 ± 1.09 degrees
NC1(C(=O)N[C@@H](CCO)c2ccc(Cl)cc2)CCN(c2nc[nH]c3nccc2-3)CC1		metastatic CRPC patients	400 mg b.i.d., grade 3 to 4, treatment-related, with: enzalutamide 160 mg daily		incidence of Erythema	0%
CN1C(=O)[C@@H](NC(=O)c2nnc(Cc3ccccc3)[nH]2)COc2cccnc21	phase I multiple ascending dose	human, male and female	oral, 50 mg, 14 days		medical device site reaction incidence	25%
CCCCC1=NC2(CCCC2)C(=O)N1Cc1ccc(-c2ccccc2S(=O)(=O)Nc2noc(C)c2C)c(COCC)c1		healthy adult volunteers, plasma	oral, 200 mg, single dose, fasted, crushed tablet		AUC(0-inf)	45000 ng·h/mL
Cc1ccc(Sc2ccccc2N2CCNCC2)c(C)c1	item: Nausea	healthy adult men	oral, 2.5 mg single dose		participants with TEAE	0%
O=C(N[C@H](Cc1c[nH]c2ccccc12)C(=O)Nc1ccncc1)c1ccc(-c2cc(C(F)(F)F)ccc2F)cc1F		Swiss Webster mouse, female, liver	oral, 50 mg/kg, 2 h, 20% Kolliphor vehicle		concentration	81 µM
Cc1cccc(CNC(=O)c2cn(CCNC(=O)c3ccccc3S)c3cc4c(cc3c2=O)OC(F)(F)O4)n1		Sprague-Dawley rat, male, whole blood	intravenous, 5 mg/kg of parent compound		AUC(0-inf)	3170 ± 350 ng·h/mL

For quick reference, copied from above:
SMILES	test	system	setting	how to read	endpoint	result
C[C@@H](O)[C@H](NC(=O)c1ccc(-c2ccc(Br)cc2)cc1)C(=O)NO		aqueous buffer	pH 7.4		thermodynamic solubility	< 10.7 µM
CC(C)NCCCC[C@@H]1NC(=O)[C@H](Cc2ccc(O)cc2)NC(=O)[C@H](Cc2ccccc2)NC(=O)CC[C@H](C(=O)N[C@@H](CCCCNC(C)C)C(=O)N[C@@H](CCCCNC(=O)[C@H](CCC(=O)O)NC(=O)[C@H](CCC(=O)O)NC(=O)[C@H](CCC(=O)O)NC(=O)CN2CCN(CC(=O)O)CCN(CC(=O)O)CCN(CC(=O)O)CC2)C(N)=O)NC(=O)CNC(=O)[C@H](Cc2ccc3ccccc3c2)NC(=O)[C@@H](CCCNC(=N)N)NC1=O [gallium-68 labelled]		mouse with JeKo-1 xenograft, kidney	intravenous, 1 h		tissue uptake	3.45 %ID/g
CCN1/C(=C/C(C)=O)Sc2ccc(F)cc21		cynomolgus monkey	oral, 100 mg/kg, 1 h post-dose		heart rate	121 ± 19 beats/min
